Measurements of several laboratories.
Numbered parts are unrelated; each lists some results of a single study.

Set 1 — technique: universal PBM; molecule type: double-stranded DNA, one strand shown; medium: in vitro; tested at: 600 nM; direction: higher = stronger binding; measurement: E-score
Target: Sal-like protein 4, full length isoform A (SALL4, Homo sapiens, UniProt Q9UJQ4, residues 1-1053)
UniProt Q9UJQ4, sequence (whole entry, looked up): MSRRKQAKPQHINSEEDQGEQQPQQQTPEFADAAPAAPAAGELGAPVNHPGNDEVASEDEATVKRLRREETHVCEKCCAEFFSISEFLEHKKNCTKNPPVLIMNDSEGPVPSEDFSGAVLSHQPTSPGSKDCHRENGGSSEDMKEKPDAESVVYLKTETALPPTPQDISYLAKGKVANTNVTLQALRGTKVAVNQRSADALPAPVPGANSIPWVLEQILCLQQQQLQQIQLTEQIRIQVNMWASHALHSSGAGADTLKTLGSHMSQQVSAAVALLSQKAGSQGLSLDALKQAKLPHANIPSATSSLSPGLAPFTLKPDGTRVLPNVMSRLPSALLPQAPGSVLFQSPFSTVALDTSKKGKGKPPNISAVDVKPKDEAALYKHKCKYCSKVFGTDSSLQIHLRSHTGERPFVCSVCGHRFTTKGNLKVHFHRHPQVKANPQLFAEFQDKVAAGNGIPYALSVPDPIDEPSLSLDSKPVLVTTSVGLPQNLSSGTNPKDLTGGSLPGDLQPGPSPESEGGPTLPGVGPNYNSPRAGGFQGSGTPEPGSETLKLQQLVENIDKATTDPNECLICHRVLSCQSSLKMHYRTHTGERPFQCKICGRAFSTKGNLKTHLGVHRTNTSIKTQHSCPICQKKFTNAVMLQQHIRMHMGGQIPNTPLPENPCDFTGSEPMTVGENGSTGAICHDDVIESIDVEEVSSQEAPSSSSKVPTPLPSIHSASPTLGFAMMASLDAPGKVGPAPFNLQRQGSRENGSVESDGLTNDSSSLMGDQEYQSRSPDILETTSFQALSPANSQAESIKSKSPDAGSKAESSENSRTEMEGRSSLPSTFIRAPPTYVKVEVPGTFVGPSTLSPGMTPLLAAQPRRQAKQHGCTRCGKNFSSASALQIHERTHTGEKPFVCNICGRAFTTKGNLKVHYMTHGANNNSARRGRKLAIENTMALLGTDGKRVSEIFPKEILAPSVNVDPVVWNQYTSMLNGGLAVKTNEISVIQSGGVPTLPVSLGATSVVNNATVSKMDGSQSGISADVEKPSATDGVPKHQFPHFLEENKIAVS
Setting: 8-mer, flanks averaged, mean of replicates
GAAGCGGC: -0.341
ACCATCCC: -0.0484
ATTGCCCG: -0.125
ACTCCGCG: -0.289
GACGTAGC: -0.153
CTGGGCCA: -0.288
CACCGTGA: -0.153
GAATTACC: 0.179
ATCTTTCA: 0.169
CACCGCTC: -0.293
CGTAAAAC: -0.0333
AACCGCAC: -0.189
CGCATCCG: -0.236
CGCTAACG: -0.0161
CAGCGTCA: -0.221
GCCCTGAC: -0.216
ATGTTCAG: 0.0908

Set 2 — technique: RNA Bind-n-Seq; molecule type: RNA; medium: in vitro; tested at: 365 nM; reference: no-protein control; direction: higher = stronger binding; measurement: RBNS enrichment (R)
Target: RNA binding protein fox-1 homolog 2, RRM domain, GST-SBP tag (RBFOX2, Homo sapiens, UniProt O43251-10, residues 100-194)
Setting: natural RNA segment, single round, ends assumed
Constant ends, left off below: GGGAGUUCUACAGUCCGACGAUC … UGGAAUUCUCGGGUGCCAA
Residues (chain): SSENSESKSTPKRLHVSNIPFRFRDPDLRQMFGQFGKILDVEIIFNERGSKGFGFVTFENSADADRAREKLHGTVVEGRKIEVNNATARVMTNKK
AUAGCUAGGCUAAGUCAAGAUCAACAGUCCGGGGUUGGUGGUGUUGGAUGAAACAUUCAUUUUUACCUUGUGGAUGCUAGUGCUGUAGAGUUCACUGUUGUACACAGUCU: 0.317
AGAGUCUAAGAAACACAGCAUGUGAAGAACAUUAGAUUUAUACAUUCCAGAAUCUCUGCUCUCAGAGUAGCUAAGAGAUUCGGUACAGAAGACGUUCUAUGGAGAAGCAC: 3.77
UACUGUGUGCCAGGCACUAUGAGGCACUUUUCUAUUUAUCCUCUUUUAAGAUAGGACUAAGAGUUCAUCUCCUUCUAGAAGGCCCCCAGGUUAAAUAAAAACACUUGGGG: 0.81
GGCCUACGCCAAAGCACAGGAUGGGGCGGGCAGGAAGCCCUCUCCCAAGAUCGAGUUGGCCGAGGAUGGAUGAUUGUGGCAGCAGAAGCCGUUGCAGCCCCACGUUGUGC: 0.523
UUCCAAAAGGGGGUUCUCCAUUUUUUGUAGUUUUGUCUAAAUUUUUAAUGACCAUUUCCUGGAAUCAGUUUAUUAUACUGAAAACUGGGGGUGGGAGUAGGGAGCUAGUU: 0.614
GGAGCCUUAUUCUGUACCCCACUUUCCUCUUUUUAAUGGUACACGGUGGUGAUAUUUUUCAUCCCCAACCCAUUGGACUCCAUCAUAUAAUCAUGAGUCAUGCAGAGCCA: 0.448
AAGAGAUGGAUGUCGUGAUGCCUCGUUGCCUUAAUGAGAGCUGAGUCAGCUGUCCUUCACCCUGGGAAAGUCCAUGCCAGCUGUGGACUGCUGGGAGCCAUGUUUGUCAC: 0.288
AAUAUCUAGAAACACCACUUCCCUCCAACCUGCGACUUUUGUACAAAAUUCAGAGAAUCUGUAAAGAACCCCCCACCCCUCAAAAAAGCCUAAGCACUUGCUGUUGUUCU: 0.908
AAGAUGAUGGACUGCCUGAGGAUGGGCCCACCCACUUCGUGCCUCAUGGAGUUCAGUCCUAUGCACUACUCUCUCUGGAUGGUGUGUGAUUGGAUGAGUGCCAUUUCUAU: 0.251
AGAGUUUUAGCUGCCUUACUGAACAUUGUCCCAACAGAAAGUUCCUAUCGUUCUCCUUCCUUCUUGGCAGGCUUCAGGUUUUGCUGCAGCCCCUGGAGCCAACAUUUUGG: 0.618
UUUUGCAGCAAAGUGAUAUUUAUUGAGUUAUGUGGAAAAGAUGGCUUGUAUUUUUCAGAUUAUUACAACACACUGUGCAGAAUUAGACAGAUGUUCCGUGGUGUUUGGUU: 4.35
UCCAAGGCAACCAAGUGGAGAACACAUCACAGGAGACAGGAAAUAUGGCUUGUUCAUAGAAUGAUGCUACUGUGACUUCAAAACUGAUCUCAAGUAUUCUAGAAUCUGCU: 0.36

Set 3 — technique: protein binding microarray; molecule type: double-stranded DNA, one strand shown; medium: in vitro; tested at: not given; reference: not given; direction: higher = stronger binding; measurement: E-score
Target: Histone acetyltransferase KAT6A, winged helix 2, GST fusion (KAT6A, Homo sapiens, UniProt Q92794, residues 85-181)
Setting: 8-mer, flanks averaged, mean of 2 arrays, mostly near background
Construct (chain): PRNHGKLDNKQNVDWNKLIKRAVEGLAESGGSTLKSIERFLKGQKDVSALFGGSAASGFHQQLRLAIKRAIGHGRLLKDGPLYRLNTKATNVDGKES
ACAAAGCA: 0.287
GACCGTAC: -0.239
AAAAGTTA: -0.0505
CCAACACC: -0.00334
ATTCTGAA: 0.111
CACTACGG: 0.0112
ATTGTAAC: 0.0297
CTTCCTGA: 0.147
AACAGTAT: -0.0787
CACATAAG: -0.129
ACTGAACC: -0.0113
GGAGCTCC: -0.0385
GGGGGTAA: -0.0589
CGGCGGAG: 0.223
ACATTGAC: -0.108
GTATCGAA: -0.0205
ATTACGCG: -0.0246
AGGGTAGG: -0.093
TCATTTCA: 0.0043
ACTCGATA: -0.162
AATCATAA: 0.0683
ATTGTGGC: 0.0321
CGGTGTAC: -0.0284
AGTCCATA: -0.271
ACAAACGT: -0.0562

Set 4 — technique: EMSA with sequencing; molecule type: double-stranded DNA, one strand shown; medium: in vitro; tested at: 10 and 20 nM; reference: negative control set to 0; direction: higher = stronger binding; measurement: normalised bound fraction
Target: Hepatocyte nuclear factor 3-alpha (Foxa1, Mus musculus, UniProt P35582, residues 1-468, full length assumed)
UniProt P35582, sequence (whole entry, looked up): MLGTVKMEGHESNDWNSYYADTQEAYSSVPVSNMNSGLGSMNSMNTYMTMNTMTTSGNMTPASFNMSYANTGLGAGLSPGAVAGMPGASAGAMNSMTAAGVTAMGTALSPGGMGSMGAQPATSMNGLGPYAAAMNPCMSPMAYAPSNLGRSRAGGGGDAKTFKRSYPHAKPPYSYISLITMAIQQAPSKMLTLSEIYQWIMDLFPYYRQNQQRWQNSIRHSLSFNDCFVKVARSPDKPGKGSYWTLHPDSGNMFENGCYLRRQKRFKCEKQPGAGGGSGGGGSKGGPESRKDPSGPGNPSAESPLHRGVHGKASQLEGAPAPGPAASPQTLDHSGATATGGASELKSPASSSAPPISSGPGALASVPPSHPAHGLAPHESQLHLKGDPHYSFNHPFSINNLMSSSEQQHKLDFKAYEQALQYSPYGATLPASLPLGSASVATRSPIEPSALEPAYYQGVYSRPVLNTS
Setting: whole designed probe, mean of two concentrations, ends assumed
Constant ends, left off below: GTGAGCGGTGCCCATTGATGGGGAAC … TTTCACTGGGATCGTGGGGAC
ATCTTCCCCCTCTTCCTTGCCCCACCAGCTCACCTACGGGGGTTATTTGCACAAAGGAAAATAAATAAAGCCGGCATTCGTTAACCCTCTTCTGGCGCAAACTGCTGTTTGCTCTGGATCTAACATGGTCCTTTGGCGAGGCGTGGCTCCGGGAGAGCAAAGCACCGTGTCAGGGCCATGATCCGGGGTGGCC: 0.375 ratio
GGTCAGAGAATGCTAATCAGCCATGAAGTGGGCTTGCCATGACTCTGACACTGTATCTCCTGGTGCACTCTGCGGTAGGTGCATCTTTGCTGAGTAATTTCAAAGTGAACTTGACGGGAAAGGAGACCTTAGCAGTCCTACAAAGGCAATTTTGCAAGCTGTCTGGCTGTGGAATTAGTGGAATGTTTTCTCA: -0.0585 ratio
CCCACCCCACCCTGGCCACGATGACGCAAACAGAAAACCTCAGTGCTTACAGATCCCGATCTCCCACGGTCACCAATGCTCTAGAGAGGTAAATATTTACACAGGAGCCTCTAAAGCTCATAACTCAGAGGGGAGATGCTCCCCCTGCCGCCTAGGGGCTGTAAACATTTGTTCCTGCAAGCCCTGCAGCAGA: 0.415 ratio
GAATAGGATTTCTCAATATTCTGTAACACAGAAATTAATTTTTGTGGTCTTTTTGAATGTTACACATTCCTGTTTTTCAAAAAGAACTTACTTGTTTACTTTTACAGTATTCTTTCTGTTATAATTTAATTGTAAATACTCTTCAATTAAAAGCCTTTTTGATACGCCTCTGTAATTGTTATTTATAATAGTT: 0.439 ratio
CACCTGGTTCAAACCTTGGCTTACCTCCACTCTTAGAATCAGCCGAGCTAATTAAAAGCACAGTGAAAGACACAAAGGCACCAAGACAGCTGAGCAAACATTAACAAATGCGTAAGTAAATAAAGTACTTGTATTATGTGTAAGCAATGGTGCAGATGAAACTTGGGTGGCACTAGGAAGGGTGAGTCAGAGG: 0.522 ratio
AAATTGGACACTAGGTGAAAATTCAAGCCTAATCGCTAAAGATTAAGAAAGACGCAATAACCACATTATTGGGGAAAAAAAAGCAAATCTCAGAGTAATCTGGAAGAAATGTTCTTTCTTATTTTTCCCAAAGAACCAGCTCTTTAAAATTGAGTTTTTAGATGATAATTTCATGCTTGGTAATACCCACGTG: -0.0785 ratio
GTGTTATGTGTTCTTTGAATACCTTATTGACAAGAACTATAACTTTTCCAGGCTCAGATGCTTTTTTCTTCTTGTCTAAGTGATCCTTGGCAATGTAAACAGCCACTCTGGTTTTTCCACTCCCTGTAGGGAGGCAGATGATGATATTCTTCCCTTCCAAGGCTGGCTGGGCAACTTCCATTTGGTAAGGCCT: 0.236 ratio
CTCATTCCTTGCTTCCGCCAATAATCTGACTAGTAAAGAAGTCACTGCATGCCACAAATTGTCAGTGCTGACTTGAGTGACTCAGAAGTTATTTATTTACTTATTTAATATATGAGTGTCACAGATGCAAATTCCATCTTGAGAATACCAACTCCTGATGCCAACTGATTGTCAGTCATGGCTACAACAGGAG: 0.439 ratio

Set 5 — technique: RNAcompete; molecule type: RNA; medium: in vitro; tested at: 20 nM; setting: 7-mer, probes averaged, single round; reference: mean of 7-mers; direction: higher = stronger binding; measurement: 7-mer Z-score
Target: PABPC1L2, full length, GST fusion (mouse, UniProt A0ABA7IW68)
Construct (chain): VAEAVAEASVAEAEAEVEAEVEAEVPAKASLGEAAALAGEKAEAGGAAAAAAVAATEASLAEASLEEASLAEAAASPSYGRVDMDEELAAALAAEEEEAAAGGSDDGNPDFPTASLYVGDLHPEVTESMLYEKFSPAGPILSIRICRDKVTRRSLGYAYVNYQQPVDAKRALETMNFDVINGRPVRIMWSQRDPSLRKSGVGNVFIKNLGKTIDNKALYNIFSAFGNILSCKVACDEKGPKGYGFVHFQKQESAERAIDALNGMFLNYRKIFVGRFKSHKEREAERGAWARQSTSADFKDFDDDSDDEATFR
GUCUGGU: -0.237
GAUGUGG: -0.0192
CUGAAGC: -0.0573
GAGACGU: -0.171
GUGAUCG: -0.211
UAGGCAC: 0.0424
CAUCCAC: -0.113
CCCAUGG: -0.267
AGGUGUU: -0.235
GAUGUGU: -0.322
UGCGGUU: -0.179
AUUCGAC: -0.188
CGGAGGA: 0.294
UCACCCC: -0.414
UUGUGAC: -0.208
UAGAUGC: -0.133
UCCAAGG: -0.19
GAUCUGU: -0.322
AUUCCAU: -0.197
GGGGUCU: 0.206
CCAAGAG: -0.0663
GUAAACA: 1.35
UGCCCCU: -0.284
UGAGAGU: -0.0264
AUGGGAA: 0.119
